Assay results of several laboratories.
Parts stem from different laboratories: compare values within a part only.
Chain of UniProt O75747 (whole entry, looked up): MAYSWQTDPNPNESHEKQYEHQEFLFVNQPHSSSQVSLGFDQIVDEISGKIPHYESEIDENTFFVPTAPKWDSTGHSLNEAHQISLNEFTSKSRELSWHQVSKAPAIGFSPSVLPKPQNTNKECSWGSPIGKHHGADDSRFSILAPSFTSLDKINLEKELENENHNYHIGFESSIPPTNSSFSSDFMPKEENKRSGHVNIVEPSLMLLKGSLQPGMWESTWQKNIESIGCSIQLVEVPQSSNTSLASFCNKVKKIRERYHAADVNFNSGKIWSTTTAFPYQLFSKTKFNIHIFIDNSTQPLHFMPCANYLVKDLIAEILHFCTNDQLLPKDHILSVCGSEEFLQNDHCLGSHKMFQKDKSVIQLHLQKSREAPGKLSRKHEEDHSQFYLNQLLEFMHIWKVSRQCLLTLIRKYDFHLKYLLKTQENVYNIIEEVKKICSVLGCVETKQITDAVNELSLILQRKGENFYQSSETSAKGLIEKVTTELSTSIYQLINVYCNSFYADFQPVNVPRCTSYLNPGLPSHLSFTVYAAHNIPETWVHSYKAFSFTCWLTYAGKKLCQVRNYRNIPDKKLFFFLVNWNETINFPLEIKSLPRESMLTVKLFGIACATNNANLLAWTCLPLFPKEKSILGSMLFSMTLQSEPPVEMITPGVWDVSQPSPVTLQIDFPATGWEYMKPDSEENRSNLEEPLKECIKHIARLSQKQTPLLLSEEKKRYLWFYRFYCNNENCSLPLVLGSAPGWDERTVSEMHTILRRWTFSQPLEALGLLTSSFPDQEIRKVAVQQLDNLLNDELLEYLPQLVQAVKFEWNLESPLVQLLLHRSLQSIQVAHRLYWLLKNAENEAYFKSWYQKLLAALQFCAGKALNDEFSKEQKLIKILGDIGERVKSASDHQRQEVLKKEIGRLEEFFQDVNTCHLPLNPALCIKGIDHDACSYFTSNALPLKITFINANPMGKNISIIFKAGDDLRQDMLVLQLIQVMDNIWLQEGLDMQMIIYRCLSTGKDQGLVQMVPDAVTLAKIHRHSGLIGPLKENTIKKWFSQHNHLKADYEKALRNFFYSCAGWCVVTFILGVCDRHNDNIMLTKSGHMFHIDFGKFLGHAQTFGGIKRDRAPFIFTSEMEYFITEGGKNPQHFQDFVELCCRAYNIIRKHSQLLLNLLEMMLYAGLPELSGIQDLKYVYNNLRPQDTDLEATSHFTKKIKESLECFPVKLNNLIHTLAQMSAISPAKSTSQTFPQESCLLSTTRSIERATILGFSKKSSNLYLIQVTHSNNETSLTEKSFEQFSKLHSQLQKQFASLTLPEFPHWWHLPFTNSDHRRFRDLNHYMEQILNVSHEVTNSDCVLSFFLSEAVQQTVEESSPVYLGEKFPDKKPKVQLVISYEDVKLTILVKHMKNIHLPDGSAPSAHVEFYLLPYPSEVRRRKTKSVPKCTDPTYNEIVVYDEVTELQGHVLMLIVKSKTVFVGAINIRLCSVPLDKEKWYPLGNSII
Chain of UniProt Q9H4A3 (whole entry, looked up): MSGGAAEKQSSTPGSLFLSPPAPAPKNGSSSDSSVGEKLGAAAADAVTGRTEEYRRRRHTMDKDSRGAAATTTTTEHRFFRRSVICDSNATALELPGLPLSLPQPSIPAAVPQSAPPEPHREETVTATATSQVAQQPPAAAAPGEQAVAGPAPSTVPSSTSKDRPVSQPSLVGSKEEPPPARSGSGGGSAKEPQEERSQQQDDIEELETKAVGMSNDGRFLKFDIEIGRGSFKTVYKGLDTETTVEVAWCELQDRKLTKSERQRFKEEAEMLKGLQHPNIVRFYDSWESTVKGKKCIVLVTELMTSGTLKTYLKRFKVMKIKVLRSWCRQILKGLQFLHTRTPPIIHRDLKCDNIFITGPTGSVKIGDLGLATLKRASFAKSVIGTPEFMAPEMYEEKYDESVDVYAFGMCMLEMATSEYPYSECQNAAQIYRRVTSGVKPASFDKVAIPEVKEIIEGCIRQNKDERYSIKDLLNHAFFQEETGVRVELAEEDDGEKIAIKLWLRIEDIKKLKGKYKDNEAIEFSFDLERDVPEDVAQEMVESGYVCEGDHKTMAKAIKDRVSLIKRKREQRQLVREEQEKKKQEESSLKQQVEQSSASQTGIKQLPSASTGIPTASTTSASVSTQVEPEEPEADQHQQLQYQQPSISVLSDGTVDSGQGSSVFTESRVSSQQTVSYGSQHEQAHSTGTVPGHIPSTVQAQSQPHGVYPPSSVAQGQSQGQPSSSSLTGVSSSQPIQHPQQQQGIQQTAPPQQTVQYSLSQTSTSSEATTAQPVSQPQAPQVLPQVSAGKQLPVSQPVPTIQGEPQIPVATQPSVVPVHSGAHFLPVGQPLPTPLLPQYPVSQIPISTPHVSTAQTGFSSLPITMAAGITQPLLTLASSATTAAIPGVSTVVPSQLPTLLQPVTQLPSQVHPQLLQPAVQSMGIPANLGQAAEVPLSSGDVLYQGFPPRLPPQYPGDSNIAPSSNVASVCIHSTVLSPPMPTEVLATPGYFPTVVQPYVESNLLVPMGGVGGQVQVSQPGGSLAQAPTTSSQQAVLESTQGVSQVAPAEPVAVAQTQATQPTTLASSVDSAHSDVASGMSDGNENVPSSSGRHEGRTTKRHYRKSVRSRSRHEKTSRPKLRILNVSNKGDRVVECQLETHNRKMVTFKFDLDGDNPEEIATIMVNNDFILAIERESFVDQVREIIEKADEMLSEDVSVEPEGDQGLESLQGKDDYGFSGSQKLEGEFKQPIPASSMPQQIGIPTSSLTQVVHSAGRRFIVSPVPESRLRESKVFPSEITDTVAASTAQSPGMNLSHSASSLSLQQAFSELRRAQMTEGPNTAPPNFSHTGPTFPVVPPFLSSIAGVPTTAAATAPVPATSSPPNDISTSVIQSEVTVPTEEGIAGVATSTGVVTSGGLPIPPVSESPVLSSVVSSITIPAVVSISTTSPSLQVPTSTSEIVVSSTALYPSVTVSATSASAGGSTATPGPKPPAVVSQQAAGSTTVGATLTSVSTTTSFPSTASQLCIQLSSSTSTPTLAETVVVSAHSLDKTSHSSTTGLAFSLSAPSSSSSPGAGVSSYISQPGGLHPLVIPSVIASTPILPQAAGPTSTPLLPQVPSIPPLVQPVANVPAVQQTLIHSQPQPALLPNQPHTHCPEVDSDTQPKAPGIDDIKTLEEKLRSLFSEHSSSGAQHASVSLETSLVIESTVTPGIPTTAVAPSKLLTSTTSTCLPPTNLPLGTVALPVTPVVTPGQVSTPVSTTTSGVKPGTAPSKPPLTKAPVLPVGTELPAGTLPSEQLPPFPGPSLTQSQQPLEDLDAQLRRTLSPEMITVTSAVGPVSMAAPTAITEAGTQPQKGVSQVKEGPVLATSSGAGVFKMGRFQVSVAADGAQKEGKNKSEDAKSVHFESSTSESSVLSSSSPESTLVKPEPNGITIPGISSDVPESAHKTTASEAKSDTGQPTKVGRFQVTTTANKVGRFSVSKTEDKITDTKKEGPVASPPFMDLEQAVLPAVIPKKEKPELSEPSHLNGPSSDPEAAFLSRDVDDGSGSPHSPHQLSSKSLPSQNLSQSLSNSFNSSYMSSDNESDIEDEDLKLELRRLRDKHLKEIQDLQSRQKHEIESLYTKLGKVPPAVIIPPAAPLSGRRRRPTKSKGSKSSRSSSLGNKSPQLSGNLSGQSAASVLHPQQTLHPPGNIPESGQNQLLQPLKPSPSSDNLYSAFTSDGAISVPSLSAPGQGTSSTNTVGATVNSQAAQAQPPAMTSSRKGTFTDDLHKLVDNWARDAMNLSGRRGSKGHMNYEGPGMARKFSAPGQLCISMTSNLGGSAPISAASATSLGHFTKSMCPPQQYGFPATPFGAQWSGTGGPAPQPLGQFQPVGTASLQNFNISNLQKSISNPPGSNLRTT
Chain of UniProt Q9NY57 (whole entry, looked up): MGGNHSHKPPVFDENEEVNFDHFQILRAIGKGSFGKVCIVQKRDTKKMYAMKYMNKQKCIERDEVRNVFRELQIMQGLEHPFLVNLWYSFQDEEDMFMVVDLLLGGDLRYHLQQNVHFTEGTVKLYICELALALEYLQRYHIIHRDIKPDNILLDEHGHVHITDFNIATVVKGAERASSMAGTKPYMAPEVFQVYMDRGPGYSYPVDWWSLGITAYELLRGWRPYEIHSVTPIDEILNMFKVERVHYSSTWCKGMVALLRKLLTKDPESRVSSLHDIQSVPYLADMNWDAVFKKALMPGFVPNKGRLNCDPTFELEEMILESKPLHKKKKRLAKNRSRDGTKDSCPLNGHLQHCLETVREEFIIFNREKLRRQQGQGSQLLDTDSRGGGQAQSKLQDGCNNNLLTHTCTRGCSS
Chain of UniProt Q15569 (whole entry, looked up): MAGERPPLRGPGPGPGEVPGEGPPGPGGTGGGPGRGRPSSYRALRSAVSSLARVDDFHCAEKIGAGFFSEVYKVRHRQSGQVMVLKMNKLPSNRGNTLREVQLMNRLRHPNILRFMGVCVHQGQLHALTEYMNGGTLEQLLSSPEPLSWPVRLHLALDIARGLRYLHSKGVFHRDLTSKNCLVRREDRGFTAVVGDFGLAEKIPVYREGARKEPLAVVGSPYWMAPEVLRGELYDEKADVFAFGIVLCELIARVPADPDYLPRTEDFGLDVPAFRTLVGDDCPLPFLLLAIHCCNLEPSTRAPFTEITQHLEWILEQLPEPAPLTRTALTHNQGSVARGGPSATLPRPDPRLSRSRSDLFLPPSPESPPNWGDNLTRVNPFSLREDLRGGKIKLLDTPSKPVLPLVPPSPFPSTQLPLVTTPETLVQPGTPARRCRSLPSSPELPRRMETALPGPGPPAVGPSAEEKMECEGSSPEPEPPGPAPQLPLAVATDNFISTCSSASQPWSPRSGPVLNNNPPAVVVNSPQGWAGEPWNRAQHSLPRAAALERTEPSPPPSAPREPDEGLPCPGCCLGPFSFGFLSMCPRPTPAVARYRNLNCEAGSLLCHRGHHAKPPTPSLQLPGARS

Sample 1
Compound: O=C(Nc1cccnn1)N1CCC(=Cc2cccc(Oc3ccc(C(F)(F)F)cn3)c2)CC1
Effect on: cell-free assay
Method: competition with immobilised ligand
Tested at: 1 µM
target	remaining binding [%]
Serine/threonine-protein kinase ULK2 (ULK2, Homo sapiens, UniProt Q8IYT8)	100
Atypical kinase COQ8A, mitochondrial (COQ8A, Homo sapiens, UniProt Q8NI60)	78
Phosphatidylinositol 4-phosphate 5-kinase type-1 gamma (PIP5K1C, Homo sapiens, UniProt O60331)	66
Tyrosine-protein kinase FRK (FRK, Homo sapiens, UniProt P42685)	100
5'-AMP-activated protein kinase catalytic subunit alpha-1 (PRKAA1, Homo sapiens, UniProt Q13131)	88
Calcium/calmodulin-dependent protein kinase type 1D (CAMK1D, Homo sapiens, UniProt Q8IU85)	97
Platelet-derived growth factor receptor alpha (PDGFRA, Homo sapiens, UniProt P16234)	100
Dual specificity testis-specific protein kinase 1 (TESK1, Homo sapiens, UniProt Q15569)	91
Serine/threonine-protein kinase DCLK1 (DCLK1, Homo sapiens, UniProt O15075)	100
Mitogen-activated protein kinase 8 (MAPK8, Homo sapiens, UniProt P45983)	100
Ephrin type-A receptor 4 (EPHA4, Homo sapiens, UniProt P54764)	100
Serine/threonine-protein kinase 32B (STK32B, Homo sapiens, UniProt Q9NY57)	82
Receptor-type tyrosine-protein kinase FLT3 (FLT3, Homo sapiens, UniProt P36888, F691L/ITD)	100
Cyclin-dependent kinase-like 2 (CDKL2, Homo sapiens, UniProt Q92772)	92
Phosphatidylinositol 3-kinase C2 domain-containing subunit gamma (PIK3C2G, Homo sapiens, UniProt O75747)	95
Casein kinase I isoform gamma-3 (CSNK1G3, Homo sapiens, UniProt Q9Y6M4)	100
Serine/threonine-protein kinase MARK1 (MARK1, Homo sapiens, UniProt Q9P0L2)	84
Serine/threonine-protein kinase WNK1 (WNK1, Homo sapiens, UniProt Q9H4A3)	100

Sample 2
Compound: O=c1cc(N2CCOCC2)oc2c1ccc1ccccc12
Effect on: enzyme activity
Action: inhibitor
Tested at: 0.5 µM
Relative to: control
target	remaining activity
Tyrosine-protein kinase Fyn (FYN, Homo sapiens, UniProt P06241)	113%
Serine/threonine-protein kinase NLK (NLK, Homo sapiens, UniProt Q9UBE8)	103%
Serine/threonine-protein kinase MRCK alpha (CDC42BPA, Homo sapiens, UniProt Q5VT25)	87.6%
ALK tyrosine kinase receptor (ALK, Homo sapiens, UniProt Q9UM73)	104%
PAS domain-containing serine/threonine-protein kinase (PASK, Homo sapiens, UniProt Q96RG2)	94.9%
Serine/threonine-protein kinase TAO3 (TAOK3, Homo sapiens, UniProt Q9H2K8)	98.7%
RAC-alpha serine/threonine-protein kinase (AKT1, Homo sapiens, UniProt P31749)	101%

Sample 3
Target: PABPC1L2, full length, GST fusion (mouse, UniProt A0ABA7IW68)
Method: RNAcompete
Form: RNA
Matrix: in vitro
Tested at: 20 nM
Setting: 7-mer, probes averaged, single round
Relative to: mean of 7-mers
Direction: higher = stronger binding
Target sequence (chain): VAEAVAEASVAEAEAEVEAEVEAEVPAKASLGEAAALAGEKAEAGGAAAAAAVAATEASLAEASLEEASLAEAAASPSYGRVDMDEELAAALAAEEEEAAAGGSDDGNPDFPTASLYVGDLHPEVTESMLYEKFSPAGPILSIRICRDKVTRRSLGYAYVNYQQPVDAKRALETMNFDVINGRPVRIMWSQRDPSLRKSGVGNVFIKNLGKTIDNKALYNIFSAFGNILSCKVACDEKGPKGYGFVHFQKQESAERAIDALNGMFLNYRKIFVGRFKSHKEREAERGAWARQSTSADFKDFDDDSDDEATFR
Sequence	7-mer Z-score
UCGGGUU	-0.213
CGCGGAC	-0.0482
UGCUUGU	-0.454
UCAAAAG	0.769
UAUUGUA	-0.215
CGCGGCC	-0.242
ACCGGAA	0.124
ACUCACA	-0.166

Single results of other studies
Substance	target or system	assay	test system	setting	how to read	measurement	result
PhoQ, residues 284 288 289 292 302 303 SSYNSA	PhoP, residues 12 14 15 18 19 TTLRV (Escherichia coli, UniProt P23836)	Sort-seq, refers to: YFP reporter	E. coli	PhoQ-PhoP variant library, with: 10 µM Mg2+	relative to: high Mg2+ state, higher = stronger signaling	fold induction	7.5
CC(C)n1cnc(-c2ccc(F)cc2)c1-c1ncc(C(=O)Nc2ccc(N3CCN(C)CC3)cc2)[nH]1		phase 2a clinical trial	patients with idiopathic pulmonary fibrosis	30 mg once daily		patients with allergic conjunctivitis TEAE	0%
SART1 (Homo sapiens, UniProt O43290)	PRPF8 (Homo sapiens, UniProt Q6P2Q9)	cross-linking MS	cells	with: BSPNO		cross-linked residues	K662 to K1344

For quick reference, copied from above (sample 2):
target	remaining activity
Serine/threonine-protein kinase MRCK alpha (CDC42BPA, Homo sapiens, UniProt Q5VT25)	87.6%
Serine/threonine-protein kinase NLK (NLK, Homo sapiens, UniProt Q9UBE8)	103%
PAS domain-containing serine/threonine-protein kinase (PASK, Homo sapiens, UniProt Q96RG2)	94.9%
ALK tyrosine kinase receptor (ALK, Homo sapiens, UniProt Q9UM73)	104%
Tyrosine-protein kinase Fyn (FYN, Homo sapiens, UniProt P06241)	113%
RAC-alpha serine/threonine-protein kinase (AKT1, Homo sapiens, UniProt P31749)	101%
